Measurements pooled from the literature.
Parts stem from different laboratories: compare values within a part only. Substitutions count along the parent as printed.

Sample 1 — method: protein-binding microarray; molecule type: double-stranded DNA, one strand shown; medium: in vitro; concentration: 2540 nM top; notes: 60-bp whole probe; together with: salmon DNA 0.4 mg/ml; reference: random background probes; reading: higher = stronger binding; constant ends, left off below: GCCTAGCAC … GTCTTGATTCGCTTGACGCTGCTG
Target: Interferon regulatory factor 3, full length, phosphomimetic (IRF3, Homo sapiens, UniProt Q14653, residues 1-427, S386D/S396D/S398D/S402D/T404D/S405D)
Target sequence (chain): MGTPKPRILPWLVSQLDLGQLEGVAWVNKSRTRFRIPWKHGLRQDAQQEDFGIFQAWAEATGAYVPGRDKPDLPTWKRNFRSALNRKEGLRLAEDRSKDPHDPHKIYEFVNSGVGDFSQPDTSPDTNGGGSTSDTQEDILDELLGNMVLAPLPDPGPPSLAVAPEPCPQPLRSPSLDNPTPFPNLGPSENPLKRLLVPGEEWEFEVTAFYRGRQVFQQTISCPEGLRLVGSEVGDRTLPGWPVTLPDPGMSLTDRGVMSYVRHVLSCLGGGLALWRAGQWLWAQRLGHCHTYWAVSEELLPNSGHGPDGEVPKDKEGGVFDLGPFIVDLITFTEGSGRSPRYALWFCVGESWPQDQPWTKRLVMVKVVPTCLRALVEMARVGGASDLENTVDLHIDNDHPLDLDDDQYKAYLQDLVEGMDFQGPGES
Under “fitted relative affinity”, `GACGGTTTCCTTCTCCAGACGTGCTAG` is recorded as 10.1 z-score.
Under “fitted relative affinity”, `GACGAACTGCTTATCCTGACGTGCTAG` is recorded as -0.0852 z-score.
`CCCACTTTCAGTTCTCCCTTGTGCTAG` — result for “fitted relative affinity”: 4.69 z-score.
For `TCAGATCTCAGTATCGATTAGTGCTAG`, “fitted relative affinity” read 1.74 z-score.
For `TCAGTTTCTATTTTCTGACTGTGCTAG`, “fitted relative affinity” read 5.75 z-score.
Under “fitted relative affinity”, `GACGAACTGTGGTTTCGAGACGTGCTA` is recorded as 1.14 z-score.
For `TCACTTTCAGTTCTCCCACTGTGCTAG`, “fitted relative affinity” read 6.35 z-score.
`GACGGCCTGGGGACTGGGGACGTGCTA`: “fitted relative affinity” -1.27 z-score.
Under “fitted relative affinity”, `TCAATTATTGTCTTCCCACTGTGCTAG` is recorded as 0.325 z-score.
`GACGGTCTCATTATCCTGACGTGCTAG` — result for “fitted relative affinity”: 1.62 z-score.
`GACGATCTCAGGATCGAGACGTGCTAG`: “fitted relative affinity” 0.374 z-score.
For `TTTTTTCTTTTATTAGTGACGTGCTAG`, “fitted relative affinity” read 3.4 z-score.
`TCAATTCTGAAAATGGAACTGTGCTAG`: “fitted relative affinity” 0.919 z-score.
`CTCTCCATGTGTTTAAAAAGGTGCTAG` — result for “fitted relative affinity”: 0.537 z-score.
`TCAGTCTTGGTTCTCAGACTGTGCTAG`: “fitted relative affinity” 1.1 z-score.
Under “fitted relative affinity”, `TTAGATCTCACACTGGATTAGTGCTAG` is recorded as 0.0478 z-score.

Sample 2 — target: CCNE1, cyclin fold, Cln2 fusion (human); method: yeast growth competition, sequencing; medium: yeast; notes: weak parent motif; reference: not given; reading: higher = stronger binding
Starting sequence: CUX1 docking peptide (human); SRIRRELFIEEIQ
For `S1A`, “normalised enrichment score” read 1.56.
`I9A` — result for “normalised enrichment score”: -0.00301.
For `R5A L7A`, “normalised enrichment score” read -0.179.
For `R5K F8L`, “normalised enrichment score” read 0.253.
`R4A`: “normalised enrichment score” 0.282.
`E10A` — result for “normalised enrichment score”: 0.609.
`R5K` — result for “normalised enrichment score”: 0.624.
`I12A`: “normalised enrichment score” -0.383.
`E11A` — result for “normalised enrichment score”: 0.884.
For `Q13A`, “normalised enrichment score” read 1.17.

Sample 3 — method: RNA Bind-n-Seq; molecule type: RNA; medium: in vitro; concentration: 20 nM; notes: 6-mer, flanks averaged, single round; together with: 150 mM LiCl; reference: input library; reading: higher = stronger binding
Target: TAR DNA-binding protein 43, full length, His tag (TARDBP, Homo sapiens, UniProt Q13148, residues 1-414)
`ACUGGG` — result for “6-mer enrichment (R)”: 1.01.
`GUGGUA` — result for “6-mer enrichment (R)”: 1.3.
Under “6-mer enrichment (R)”, `UAGAAU` is recorded as 0.954.
`AUACUA`: “6-mer enrichment (R)” 0.85.
`ACCGUG`: “6-mer enrichment (R)” 0.926.
`GUAGUA` — result for “6-mer enrichment (R)”: 1.06.
`UUGAUC` — result for “6-mer enrichment (R)”: 0.912.
For `GGUCAG`, “6-mer enrichment (R)” read 0.964.
For `CCCAGC`, “6-mer enrichment (R)” read 0.972.
`GAUCAG` — result for “6-mer enrichment (R)”: 0.885.
Under “6-mer enrichment (R)”, `GAGUGC` is recorded as 1.19.
`UUGCUA`: “6-mer enrichment (R)” 0.973.
For `GGAAAA`, “6-mer enrichment (R)” read 0.915.
`UCUAAU`: “6-mer enrichment (R)” 0.929.
Under “6-mer enrichment (R)”, `AACUGC` is recorded as 0.842.
For `UGCGAC`, “6-mer enrichment (R)” read 0.921.

Sample 4 — method: universal PBM; molecule type: double-stranded DNA, one strand shown; medium: in vitro; concentration: not given; reading: higher = stronger binding
Target: Sal-like protein 4, full length isoform B (SALL4, Homo sapiens, UniProt Q9UJQ4-2, residues 1-616)
Notes: 8-mer, flanks averaged, mean of replicates
For `ATGTTCGC`, the E-score was 0.0668.
For `TCGGAGAA`, the E-score was -0.1.
The E-score of `AAGATCTA` is reported as -0.0366.
`CGCGAGAG` gave an E-score of -0.268.
With `CCGTGTTA` the E-score was -0.113.
`ACACGTCG` has an E-score of -0.13.
The E-score of `CCCACGTA` is reported as -0.026.
`TAACCAGA` has an E-score of 0.0547.
`AAGTACTT` has an E-score of 0.107.
For `ATAATTAA`, the E-score was 0.408.
The E-score of `AATCCCAC` is reported as -0.142.
The E-score of `TAATACGA` is reported as 0.289.
`AACTGCAA` gave an E-score of -0.0683.
For `CTCGACAA`, the E-score was 0.124.
`AAGCCCGG` has an E-score of -0.303.
`GTTGGTAA` has an E-score of 0.118.
The E-score of `AGGTGTAC` is reported as 0.00526.
For `ATGTCACA`, the E-score was 0.189.
`CCATCCTC` gave an E-score of -0.157.
`GATTTACC` gave an E-score of 0.0734.
For `AATATGAC`, the E-score was 0.39.

Sample 5 — method: DHFR PCA, deep sequencing; medium: yeast; together with: (+)-ABA 17 µM; reference: wild-type fitted maximum; reading: higher = stronger binding
Target: ABI1, truncated, D143A, DHFR fusion (Arabidopsis thaliana)
Notes: methotrexate growth selection, single substitutions
Starting sequence: PYL1, truncated, DHFR fusion (Arabidopsis thaliana); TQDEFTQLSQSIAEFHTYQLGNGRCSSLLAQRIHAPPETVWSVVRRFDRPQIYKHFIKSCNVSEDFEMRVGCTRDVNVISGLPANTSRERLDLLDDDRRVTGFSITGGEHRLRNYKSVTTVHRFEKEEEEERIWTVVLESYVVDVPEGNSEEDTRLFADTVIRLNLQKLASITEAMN
`S42R`: “relative binding score” 78.7%.
`S150R` — result for “relative binding score”: 33.7%.
For `D96K`, “relative binding score” read -1.62%.
`S59V`: “relative binding score” 50.3%.
For `R49F`, “relative binding score” read 45.8%.
`E129C` — result for “relative binding score”: 81.3%.
`I79T` — result for “relative binding score”: 70.9%.
Under “relative binding score”, `G81N` is recorded as 3.09%.
`H110L` — result for “relative binding score”: 6.65%.
Under “relative binding score”, `Q31T` is recorded as 35.1%.
`Y141A`: “relative binding score” 1.99%.
Under “relative binding score”, `E147T` is recorded as 72.5%.
Under “relative binding score”, `D3G` is recorded as 76.9%.
`M68T` — result for “relative binding score”: 66.1%.
`F5V` — result for “relative binding score”: 82.8%.
Under “relative binding score”, `R132Y` is recorded as 78.7%.
`G71S` — result for “relative binding score”: 17.3%.
`M176C`: “relative binding score” 70.3%.
For `Q10T`, “relative binding score” read 80.7%.
For `P37H`, “relative binding score” read 20%.
`K116G`: “relative binding score” 8.21%.
For `L93T`, “relative binding score” read 77%.
`T86I` — result for “relative binding score”: 50.6%.

Sample 6 — method: RNA Bind-n-Seq; molecule type: RNA; medium: in vitro; concentration: 365 nM; reference: no-protein control; reading: higher = stronger binding
Target: RNA binding protein fox-1 homolog 2, RRM domain, GST-SBP tag (RBFOX2, Homo sapiens, UniProt O43251-10, residues 100-194)
Notes: natural RNA segment, single round, ends assumed
Target sequence (chain): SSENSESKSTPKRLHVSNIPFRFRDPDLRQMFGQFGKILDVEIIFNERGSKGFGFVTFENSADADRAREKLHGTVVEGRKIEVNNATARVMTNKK
Under “RBNS enrichment (R)”, `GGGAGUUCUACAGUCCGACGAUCUCCACCAGUGCAUGGCAGUGCCCAUGCAUGCCGGCAUAUUCAGCAGCUGUCACCUUACUCCCAUCCCAGGAGGCCGUAAGGCCUCCCACCUCUCCCCUGUGACUGCAGCUUGGAAUUCUCGGGUGCCAA` is recorded as 0.427.
`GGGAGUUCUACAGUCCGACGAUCCCAUUGAUUUUGUUUGAUUUCUGAUGUGGAAGUGCGGUCAUUCCUGGUUUAACUCACAGCAACUUUUAAUUGGUCUAAGAUGAGGGCAUCCCUCAGUUGGUCCAUUGUAAUGGAAUUCUCGGGUGCCAA` — result for “RBNS enrichment (R)”: 0.647.
Under “RBNS enrichment (R)”, `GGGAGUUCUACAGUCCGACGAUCAGGAACUGGUGUAAGUCCUCCAGACACAUCCCUGUGUAAGGAAGCCAGGCACUGUUUCUCUGAGUUUUGUUGUUUUGUUUUCUUUGAAGGCUACUGAGCCCAAGCUUCCCUGGAAUUCUCGGGUGCCAA` is recorded as 0.32.
For `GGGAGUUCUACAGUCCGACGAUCAAGAUAUAGGGUAGAAAUAAGAGCUAUACUUACAAGAGUCAAUAGAUCACUGACUUCUCUUUAACUGUCCUGAGCUACAUCACGCCCACAAAUCUGUCUUUCAUACCACUUGGAAUUCUCGGGUGCCAA`, “RBNS enrichment (R)” read 0.308.
`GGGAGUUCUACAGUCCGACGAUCGCAGUCCUAUAGUAACCGAGCUUGCACUCGGGAGGUAGGAAGCCAGAGGCCAGCCUCAAGGUGGCCAUGUCGAGGUGAGGCCAGCUUGGGCUAUCCGAGACGCUGUCAGCUGGAAUUCUCGGGUGCCAA` — result for “RBNS enrichment (R)”: 0.375.
For `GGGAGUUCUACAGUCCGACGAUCUCGUCCAACCCUAAGCCUCUUCCUUAAGGUUCUUGUGACAGAUCCAGUUCAGGGAGGAGGCACUGAGAUUUGGUUAGGGCCAUCGCGAACCCCACACACCCAUCCUCCCAUGGAAUUCUCGGGUGCCAA`, “RBNS enrichment (R)” read 0.272.
Under “RBNS enrichment (R)”, `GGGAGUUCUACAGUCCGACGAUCCCUGGUGCUGGGGGCAGCCGGUGCGGCCCCAGGGAGUCCCAGCUUAGUAACCUCGCCUCUCUUCUUGAACCACACCGGUCUGCCGCUGCUCAGUGCCCCACCAGGCGUGGUGGAAUUCUCGGGUGCCAA` is recorded as 0.368.
`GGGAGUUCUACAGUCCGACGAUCACUUUGCUUUGUUUAUAAAUAAAUUAGUAGAUUGGAAAAACUAGUGUUAGGGAAAGAAAUCACAUGUUCAGAGCCUAAUUCAGUAGGAAGGGCUUUUCUCUACCCUGAAAUGGAAUUCUCGGGUGCCAA` — result for “RBNS enrichment (R)”: 0.408.
Under “RBNS enrichment (R)”, `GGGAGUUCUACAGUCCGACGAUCAUGUAAGUCUGCUAAAGUUUUUUAGCCCACUUAAAACUUAAGACAACCAUUUAAAAUAAUGGAUGGGUUACUAUGAGCAAUUUCGCUUUCAGAACCCCCUUGUUUUAGUAUGGAAUUCUCGGGUGCCAA` is recorded as 0.255.
For `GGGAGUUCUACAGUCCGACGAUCGCCAGAUGAGGCUAACAAGACCACAGUAGCCCCCUUCCCAGGUACCACACUGUCCCUGGAGAUCCCUCCAGCCUAGCCCUGCUAUAGAUCUGCUCUAGACUGUGAAAUCAUGGAAUUCUCGGGUGCCAA`, “RBNS enrichment (R)” read 0.328.
For `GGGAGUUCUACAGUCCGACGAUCUUAGACACUACAGUACUAAGACAAUGUUAAAUAUAUUAUUUGCCUCUAUAACAACUUAAUGUAUUAAGUUCUGACUGUGCUUCAUAUCAUGUACCUCUCUAGUGAAGUAGUGGAAUUCUCGGGUGCCAA`, “RBNS enrichment (R)” read 0.342.
`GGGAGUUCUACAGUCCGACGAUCACAAUGGCUUAAAUUCUUGAUUCUGCCUCAGGAGAAAGAAUAGUCUUCAUGUUUCCACUCAUCCUUCCUUUGGACCCAUCGGGGAAAAAGUCUAAAUUGGAGAUCCAGUUUGGAAUUCUCGGGUGCCAA`: “RBNS enrichment (R)” 0.182.

A few entries again (sample 5):
`I79T` — result for “relative binding score”: 70.9%.
`M68T` — result for “relative binding score”: 66.1%.
Under “relative binding score”, `D3G` is recorded as 76.9%.
`H110L` — result for “relative binding score”: 6.65%.
`K116G`: “relative binding score” 8.21%.
For `L93T`, “relative binding score” read 77%.
For `R49F`, “relative binding score” read 45.8%.
For `D96K`, “relative binding score” read -1.62%.
Under “relative binding score”, `E147T` is recorded as 72.5%.
`G71S` — result for “relative binding score”: 17.3%.
For `P37H`, “relative binding score” read 20%.
